Measurements of several laboratories.
Several values in a cell are separate wells, animals, samples, runs or records.

| SMILES | system | conditions | Cmax |
| --- | --- | --- | --- |
| CC(=O)[O][Pt]([NH2])([Cl])([Cl])([NH]C1CCCCC1)[O]C(C)=O | rhesus monkey, cerebrospinal fluid | intravenous infusion, 6 mg/kg, 1 h infusion | 120 nM and 20 nM and 50 nM and 90 nM |
| COC(=O)N[C@H](C(=O)N1CCC[C@H]1C(=O)Nc1ccc([C@@H]2CC[C@@H](c3ccc(NC(=O)[C@@H]4CCCN4C(=O)[C@@H](NC(=O)OC)C(C)C)cc3)N2c2ccc(C(C)(C)C)cc2)cc1)C(C)C | healthy human volunteers, plasma | oral, dose not given, together with: rosuvastatin plus 2D regimen | 110 ng/mL |
| c1cc([C@H]2CC[C@]3(CC2)OO[C@]2(O3)C3CC4CC(C3)CC2C4)ccc1OCCN1CCOCC1 | human, plasma | oral, 800 mg, single dose, fed | 2220 ng/mL |
| CC(C)c1nc(CN(C)C(=O)N[C@H](C(=O)N[C@@H](Cc2ccccc2)C[C@H](O)[C@H](Cc2ccccc2)NC(=O)OCc2cncs2)C(C)C)cs1 | healthy human volunteers, plasma | oral, dose not given, alone, pravastatin interaction study | 706 ng/mL |
| O=c1[nH]c(Cc2ccccn2)nc2c1cnn2C1CCOCC1 | male human, plasma | oral, 5 mg, single dose | 56.4 nM |
| Cc1cnc(C(=O)N[C@H]2CCCCC/C=C\[C@@H]3C[C@@]3(C(=O)NS(=O)(=O)C3CC3)NC(=O)[C@@H]3C[C@@H](Oc4nc5ccccc5c5ccccc45)CN3C2=O)cn1 | healthy human volunteers, plasma | oral, dose not given, alone, escitalopram interaction study | 455 ng/mL |
| CC[C@H](C)[C@H](NC(=O)[C@@H](N)CCCNC(=N)N)C(=O)N[C@H](C(=O)N1CCC[C@H]1C(=O)N[C@@H](C)C(N)=O)C(C)C | human, plasma | intravenous, 1 mg/kg, single dose, healthy volunteers | 4330 ng/mL |
| O=C(CC(=O)c1ccccc1)c1ccccc1 | male C57BL/6J mice, Nrf2 wild type, plasma | po, 500 mg/kg | 77500 nM |
| CC[C@@]1(O)C(=O)OCc2c1cc1n(c2=O)Cc2cc3c(CN(C)C)c(O)ccc3nc2-1 | human patients, plasma | oral, 2.5 mg daily for 5 days, geometric mean, together with: pazopanib 800 mg daily | 12.4 ng/mL |
| COc1ccc(C[C@@H]2NC(=O)[C@H]([C@@H](C)O)NC(=O)[C@@H]3[C@@H]4CCN3C(=O)[C@@H]3Cc5cn(c6ccc(F)cc56)CCCCCCN(Cc5ccc(cc5)CCNC(=O)[C@]5(C)CCCN5C2=O)C(=O)CCC(=O)N[C@@H](C)C(=O)N[C@H](CNC(=O)CCCCC[N+](C)(C)C)C(=O)N[C@@H](Cc2cccc(c2)CNC(=O)CO4)C(=O)N3)cc1 | healthy fasted humans, plasma | oral, 10 mg once daily, day 1, geometric mean, together with: sodium caprate 360 mg | 7.05 nM |
| CCCCCOc1ccc(-c2cc(-c3ccc(C(=O)N[C@H]4C[C@@H](O)[C@@H](O)NC(=O)[C@@H]5[C@@H](O)[C@@H](C)CN5C(=O)[C@H]([C@H](O)CC(N)=O)NC(=O)[C@H]([C@H](O)[C@@H](O)c5ccc(O)c(OS(=O)(=O)O)c5)NC(=O)[C@@H]5C[C@@H](O)CN5C(=O)[C@H]([C@@H](C)O)NC4=O)cc3)no2)cc1 | young infants, plasma | intravenous, 7 and 10 mg/kg/day pooled, day 4, median, repeat dosing | 23400 ng/mL |
| O[C@H]1CCCN[C@@H]1CCCn1cnc2c(Cl)c(Cl)ccc21 | human, plasma | oral, 300 mg, single dose, healthy volunteers | 277 ng/mL |

A few entries again:
| SMILES | system | conditions | Cmax |
| --- | --- | --- | --- |
| CCCCCOc1ccc(-c2cc(-c3ccc(C(=O)N[C@H]4C[C@@H](O)[C@@H](O)NC(=O)[C@@H]5[C@@H](O)[C@@H](C)CN5C(=O)[C@H]([C@H](O)CC(N)=O)NC(=O)[C@H]([C@H](O)[C@@H](O)c5ccc(O)c(OS(=O)(=O)O)c5)NC(=O)[C@@H]5C[C@@H](O)CN5C(=O)[C@H]([C@@H](C)O)NC4=O)cc3)no2)cc1 | young infants, plasma | intravenous, 7 and 10 mg/kg/day pooled, day 4, median, repeat dosing | 23400 ng/mL |
| O[C@H]1CCCN[C@@H]1CCCn1cnc2c(Cl)c(Cl)ccc21 | human, plasma | oral, 300 mg, single dose, healthy volunteers | 277 ng/mL |
